# Measured values gathered from unrelated publications.
# Parts stem from different laboratories: compare values within a part only. Changes are numbered by the printed parent chain.

# Set 1 — target: JUND, bZIP domain (human); technique: DHFR protein complementation; matrix: yeast; relative to: wild-type JUN-FOS pair; reading: higher = stronger binding
# Setting: single substitutions, most at no-binding floor
# Starting sequence: JUN, bZIP domain (human); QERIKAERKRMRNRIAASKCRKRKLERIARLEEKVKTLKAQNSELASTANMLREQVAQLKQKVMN; partner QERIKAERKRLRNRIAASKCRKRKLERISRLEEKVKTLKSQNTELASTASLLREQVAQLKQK
Change,binding fitness [natural log]
A40Y,-1.11
S43L,-0.605
Q41V,-0.903
Q58W,-1.14
M51D,-0.552
E32R,-0.96
A49T,-0.535
N42R,-1.17
T37G,-0.915
T37A,-0.536
Q55M,-0.922
I28E,-0.841
T48I,-0.694
V35L,-0.875

# Set 2 — technique: protein-binding microarray; molecule type: double-stranded DNA, one strand shown; matrix: in vitro; tested at: not given; reading: higher = stronger binding
# Target: Protein max, full length (MAX, Homo sapiens, UniProt P61244-2, residues 1-151)
# Setting: k-mer, scored over probes, only values ≥0.25
Sequence,E-score
GCACGTGA,0.491
CCTCCACG,0.318
GCGAGCAC,0.305
ACCCACCT,0.263
ACGCGCCT,0.259
GGCGTGTA,0.34
GAACACGC,0.426
CTGCGTGA,0.3
ACGTGCTG,0.427
AGCGCACG,0.383
CGCATGAC,0.428
ATGGGGCG,0.328
AGCAGGTG,0.407
AGCGTGTA,0.387
TGACACCA,0.267
CACGAGTG,0.416

# Set 3 — technique: DHFR PCA, deep sequencing; matrix: yeast; together with: (+)-ABA 1.4 µM; relative to: wild-type fitted maximum; reading: higher = stronger binding
# Target: ABI1, truncated, D143A, DHFR fusion (Arabidopsis thaliana)
# Setting: methotrexate growth selection, single substitutions
# Starting sequence: PYL1, truncated, DHFR fusion (Arabidopsis thaliana); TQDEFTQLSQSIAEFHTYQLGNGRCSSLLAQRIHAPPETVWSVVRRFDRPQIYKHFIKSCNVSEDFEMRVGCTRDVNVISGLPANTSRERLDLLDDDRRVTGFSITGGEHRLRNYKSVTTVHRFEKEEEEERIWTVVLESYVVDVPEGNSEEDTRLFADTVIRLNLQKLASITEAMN
Change,relative binding score
K116N,1.12%
R24M,50.3%
C72H,18.2%
R88M,27.5%
S171N,45.4%
E130M,47.4%
E139M,22.6%
S117W,-2.78%
L169A,-1.14%
E174Q,37.8%
R98A,28.4%
R32Y,34.7%
H55G,65.5%
D75S,56.8%
N177V,64.2%
S26D,-22.3%
P36C,36.3%
N165C,7.36%
S59C,22.2%
I172A,-3.81%
L28M,58.2%
Q167R,74.9%
F124H,15.8%
K58Q,41.6%
N77E,78.7%

# Set 4 — target: CCNE1, cyclin fold, Cln2 fusion (human); technique: yeast growth competition, sequencing; matrix: yeast; setting: strong parent motif; relative to: not given; reading: higher = stronger binding
# Starting sequence: REPIN1 docking peptide (human); QSFRGWVALVLHL
Change,normalised enrichment score
L13A,1.08
V10A,0.799
G5A,1.52
H12A,1.08
W6A,0.535
R4A,0.565

# Set 5 — technique: RNA Bind-n-Seq; molecule type: RNA; matrix: in vitro; tested at: 365 nM; relative to: no-protein control; reading: higher = stronger binding
# Target: RNA binding protein fox-1 homolog 2, RRM domain, GST-SBP tag (RBFOX2, Homo sapiens, UniProt O43251-10, residues 100-194)
# Setting: natural RNA segment, single round, ends assumed
# Target sequence (chain): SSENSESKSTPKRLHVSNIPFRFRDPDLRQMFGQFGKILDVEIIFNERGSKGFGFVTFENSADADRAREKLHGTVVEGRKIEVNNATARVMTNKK
Sequence,RBNS enrichment (R)
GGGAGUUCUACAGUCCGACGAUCUCUUCAUUUGGAGGAAUCACCCCAUUUCAGAGUUAUCAAGAGACACUCCCCCCUCCAUUCCCACCCCUCAUACCUACACCCAAGGUUGUCAGCUUUGGAUUGCUGGGGCCUGGAAUUCUCGGGUGCCAA,0.369
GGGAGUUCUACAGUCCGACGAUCGAUUCUGUCAUCAUGCCCCCUCCCCACUUGUUCCUGCAGUUAUUAAAUAUUAACCAGGUUAGUGUUGAGUUAGAAAUUACAUUUCUGAGUUCAAGCGUUGUCUUUUUAAGUGGAAUUCUCGGGUGCCAA,0.48
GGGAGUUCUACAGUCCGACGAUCAUAGAGGUUUGGACAGACCCGGCAAGUGGUGACUACCGGUAAUUGUAGGAACACGCCUGUCACCUAACAUCCAAGCACGCUCACAAACCUGCAGGCAUAUCAUUGGCGUAUGGAAUUCUCGGGUGCCAA,0.936
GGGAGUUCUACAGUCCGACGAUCCUUGGCUCCAGCCCCUUCUCCUACCACCUCUAUUUAUUAUACAUCAGGGUUGGAGUGGGGGUUGGUCCCUCAGGGGCUCAAGUUCCUUCUCUCAGCUGGGACAGGAGGUGUGGAAUUCUCGGGUGCCAA,0.223
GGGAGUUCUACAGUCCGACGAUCCCAUUUUUAUUUCAUUUUUAUUUUUGUUAAUGCAAACAGGACUUAAAUGAACUUUGAUCUCUGUUUUAAAGAUUAUUAAAAAACAUUGUGUAUCUAUACAUAUGGCUCUUUGGAAUUCUCGGGUGCCAA,1.12
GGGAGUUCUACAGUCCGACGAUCAUAGCAGACGGACAGCCAGUGACCAUUCAUGGUCUGGAAUGUGAAGUUCACUACCAUUUGUCAAGAACCACUCUGUCCACAUCCUUUGACCUUUUGGCUUCCACGUCACCUGGAAUUCUCGGGUGCCAA,0.211
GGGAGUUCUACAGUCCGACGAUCGGCAUGGGAGGUCCUGCCAUCCGGGAGGAAAAGGAAAGUUUAGCCUCUAGUCUACCACCAGUGUUAACGCACUCUAAAGUUGUAACCAAAAUAAAUGUCUUACAUUACAAUGGAAUUCUCGGGUGCCAA,0.536
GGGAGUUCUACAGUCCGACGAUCCAGCACCCUGUGCCAGGCACUGACUCAAGCAAGAGGAACCUGGCCUGAUCCCUGACUUUGGGGAACCCAGAUCUUUCCUUUGAUUUUUGCUCCUAAUGAUCAAAACCCCAUGGAAUUCUCGGGUGCCAA,0.589

# Set 6 — technique: protein binding microarray; molecule type: double-stranded DNA, one strand shown; matrix: in vitro; tested at: not given; relative to: not given; reading: higher = stronger binding
# Target: Histone acetyltransferase KAT6A, winged helix 1, GST fusion (KAT6A, Homo sapiens, UniProt Q92794, residues 1-85)
# Setting: 8-mer, flanks averaged, mean of 2 arrays, mostly near background
# Target sequence (chain): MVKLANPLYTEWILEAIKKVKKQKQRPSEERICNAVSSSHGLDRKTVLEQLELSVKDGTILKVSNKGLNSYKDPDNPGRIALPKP
Sequence,E-score
CCGCCTCA,0.323
CTAATTAC,-0.0882
CTCGGGAC,0.18
AGCGTGAA,0.0117
CAAGAACG,-0.0205
ACTGACGG,0.148
CGACTGTA,0.0285
CCACTCCA,-0.196
AGCGATCC,0.087
GTTCACCA,0.00271
CAGCGCGA,0.326
ACTATTCC,0.146
ACAGACGT,-0.00783
CACTTTCA,-0.0605
ATAAGCGG,0.14
GGCCTAGA,-0.0253
AAAATTTT,-0.243
GAGGCAGC,0.00679
ACCCACCG,0.128
CGAAATAA,-0.0169
CGTTGAGC,0.112
ATCGAACC,0.0405
AGGTAGAA,-0.21
CACTAACC,0.0189
AAATAGTT,-0.0487

# Repeated from above (set 3):
Change,relative binding score
E139M,22.6%
S117W,-2.78%
L169A,-1.14%
E174Q,37.8%
R98A,28.4%
R32Y,34.7%
H55G,65.5%
D75S,56.8%
N177V,64.2%
S26D,-22.3%
